# Results pooled from the literature.
# Values joined by “and” are separate records of one study, mostly repeats; a detail may differ. ± gives the spread as reported.
SMILES,test,system,conditions,scale,measurement,value
N#[11C]c1ccc(-c2csc(NN=C3CCCC3)n2)cc1,dynamic PET/CT,"C57BL/6 mouse, heart","intravenous, dose not given, end of PET scan",,radioactivity uptake,0.5 SUV
CC(C)[C@@H]1NC(=O)CNC(=O)[C@H](CC(N)=O)NC(=O)[C@H](CCCNC(=N)N)NC(=O)[C@H](Cc2ccc(O)cc2)NC(=O)[C@H](C(C)C)NC(=O)[C@@H](NC(=O)[C@@H](NC(=O)[C@H](CC(N)=O)NC(=O)[C@H](Cc2c[nH]c3ccccc23)NC(=O)[C@H](C)NC(=O)[C@H](Cc2ccccc2)NC(=O)CNC(=O)[C@H](CCCCN)NC(=O)[C@H](Cc2ccccc2)NC(=O)[C@H](Cc2ccccc2)NC(=O)[C@H](CCCCN)NC(=O)OCC2c3ccccc3-c3ccccc32)C(C)C)CSSC[C@@H](C(=O)N[C@@H](Cc2c[nH]cn2)C(=O)N[C@@H](CCCNC(=N)N)C(=O)N[C@@H](CCCNC(=N)N)C(=O)N[C@@H](C)C(=O)N[C@@H](CC(N)=O)C(N)=O)NC(=O)[C@H](C(C)C)NC(=O)[C@H](CCCNC(=N)N)NC1=O,,"ICR mice, serum","intraperitoneal, 10 mg/kg, day 5",,ALT,45.1 ± 1.53 IU/L
CCCCCCCCCCCCCC(=O)N[C@H](CCN)C(=O)N[C@@H]1C(=O)N[C@@H](CCN)C(=O)N[C@@H](CC(C)C)C(=O)N[C@@H](CCN)C(=O)N[C@H](Cc2ccccc2)C(=O)N[C@@H](CC(C)C)C(=O)N[C@@H](CCN)C(=O)N[C@H](CCN)C(=O)N[C@@H](C(C)C)C(=O)N[C@@H](CC(=O)O)C(=O)O[C@@H]1C,,"rat, plasma","subcutaneous, 10 mg/kg",,AUC(0-t),114 µg·h/mL
C1N2CN3CN1CP(C2)C3.COc1ccc(C([O-])=CC(=O)c2ccc(C(C)(C)C)cc2)cc1.Cc1ccc(C(C)C)cc1.[Ru+2],,zebrafish larvae,"10 µM, 96 h, dark",baseline: normal,viability,100%
CSCC[C@H](N)C(=O)N[C@@H](C)C(=O)N[C@@H](CCCNC(=N)N)C(=O)N[C@@H](CCCNC(=N)N)C(=O)N[C@@H](CC(=O)O)C(=O)N[C@@H](CCCCN)C(=O)N[C@H](C(=O)N[C@@H](CC(=O)O)C(=O)N[C@@H](Cc1ccccc1)C(=O)N[C@@H](C)C(=O)N[C@@H](CCCNC(=N)N)C(=O)N[C@@H](CCCNC(=N)N)C(=O)N[C@@H](CCCNC(=N)N)C(=O)N[C@@H](CCCNC(=N)N)C(=O)NCCCCCC(=O)NCCCCC(NC(=O)CCCCCNC(=O)[C@H](CCCNC(=N)N)NC(=O)[C@H](CCCNC(=N)N)NC(=O)[C@H](CCCNC(=N)N)NC(=O)[C@H](CCCNC(=N)N)NC(=O)[C@H](C)NC(=O)[C@H](Cc1ccccc1)NC(=O)[C@H](CC(=O)O)NC(=O)[C@@H](NC(=O)[C@H](CCCCN)NC(=O)[C@H](CC(=O)O)NC(=O)[C@H](CCCNC(=N)N)NC(=O)[C@H](CCCNC(=N)N)NC(=O)[C@H](C)NC(=O)[C@@H](N)CCSC)[C@@H](C)O)C(=O)NCCCCC(NC(=O)C(CCCCNC(=O)CCCCCNC(=O)[C@H](CCCNC(=N)N)NC(=O)[C@H](CCCNC(=N)N)NC(=O)[C@H](CCCNC(=N)N)NC(=O)[C@H](CCCNC(=N)N)NC(=O)[C@H](C)NC(=O)[C@H](Cc1ccccc1)NC(=O)[C@H](CC(=O)O)NC(=O)[C@@H](NC(=O)[C@H](CCCCN)NC(=O)[C@H](CC(=O)O)NC(=O)[C@H](CCCNC(=N)N)NC(=O)[C@H](CCCNC(=N)N)NC(=O)[C@H](C)NC(=O)[C@@H](N)CCSC)[C@@H](C)O)NC(=O)CCCCCNC(=O)[C@H](CCCNC(=N)N)NC(=O)[C@H](CCCNC(=N)N)NC(=O)[C@H](CCCNC(=N)N)NC(=O)[C@H](CCCNC(=N)N)NC(=O)[C@H](C)NC(=O)[C@H](Cc1ccccc1)NC(=O)[C@H](CC(=O)O)NC(=O)[C@@H](NC(=O)[C@H](CCCCN)NC(=O)[C@H](CC(=O)O)NC(=O)[C@H](CCCNC(=N)N)NC(=O)[C@H](CCCNC(=N)N)NC(=O)[C@H](C)NC(=O)[C@@H](N)CCSC)[C@@H](C)O)C(N)=O)[C@@H](C)O (stereo partly drawn),,"C57BL/6 mouse female, stomach","dose not given, 6 h",baseline: total,tissue distribution,60.4% and 38.3% and 43.1%
CC[C@H](C)[C@H](NC(=O)CNC(=O)[C@H](CCSC)NC(=O)[C@H](CCC(N)=O)NC(=O)[C@H](C)NC(=O)[C@H](CCC(N)=O)NC(=O)[C@@H](NC(=O)[C@H](CC(C)C)NC(=O)[C@H](C)NC(=O)[C@H](CO)NC(=O)[C@H](CCSC)NC(=O)[C@H](CCC(=O)O)NC(=O)[C@H](CC(C)C)NC(=O)[C@H](Cc1ccc(O)cc1)NC(=O)[C@H](CO)NC(=O)[C@H](CCC(=O)O)NC(=O)[C@H](CCC(N)=O)NC(=O)[C@H](CCCNC(=N)N)NC(=O)[C@H](CCCCN)NC(=O)[C@H](CC(=O)O)NC(=O)[C@H](CC(C)C)NC(=O)[C@H](CC(N)=O)NC(=O)[C@H](Cc1ccccc1)NC(=O)[C@H](CCC(=O)O)NC(=O)[C@H](CCCCN)NC(=O)[C@@H](NC(=O)[C@H](CC(C)C)NC(=O)[C@H](CCC(=O)O)NC(=O)[C@H](CCC(=O)O)NC(=O)[C@@H](NC(=O)[C@@H](NC(=O)[C@H](CCCNC(=N)N)NC(=O)[C@H](CCCCN)NC(=O)[C@H](C)NC(=O)[C@H](Cc1ccccc1)NC(=O)[C@H](CCC(=O)O)NC(=O)[C@H](CCC(=O)O)NC(=O)[C@H](CC(C)C)NC(=O)[C@@H](N)CO)C(C)C)C(C)C)C(C)C)[C@@H](C)CC)C(=O)N[C@@H](CO)C(=O)N[C@@H](CCC(=O)O)C(=O)N[C@@H](CCCNC(=N)N)C(=O)N[C@H](C(=O)N[C@H](C(=O)N[C@@H](CCC(=O)O)C(=O)N[C@H](C(=O)N[C@H](C(=O)N[C@@H](CC(C)C)C(=O)N[C@@H](CCCNC(=N)N)C(=O)N[C@@H](Cc1c[nH]cn1)C(=O)N[C@@H](C)C(=O)N[C@@H](C)C(=O)N[C@@H](CCC(N)=O)C(=O)N[C@H](C(=O)N[C@@H](CC(C)C)C(=O)N[C@@H](CCCCN)C(=O)O)[C@@H](C)O)C(C)C)[C@@H](C)CC)[C@@H](C)CC)[C@@H](C)CC,,"male mouse, plasma","intravenous, 1 mg/kg",,C0,12200 ng/mL
CSCC[C@H](NC(=O)CNC(=O)[C@H](CCCCN)NC(=O)[C@H](CC(C)C)NC(=O)[C@@H]1CCCN1C(=O)[C@H](CO)NC(=O)[C@H](Cc1c[nH]cn1)NC(=O)[C@H](Cc1c[nH]c2ccccc12)NC(=O)[C@H](CCCNC(=N)N)NC(=O)[C@H](CC(C)C)NC(=O)[C@H](CCCNC(=N)N)NC(=O)[C@H](Cc1c[nH]c2ccccc12)NC(=O)[C@H](CS)NC(=O)CCCCCNC(=O)CN1CCN(CC(=O)O)CCN(CC(=O)O)CCN(CC(=O)O)CC1)C(=O)O [copper-64 labelled],,"BALB/c nude mouse, Huh-7 tumour, tumour and muscle","intravenous, 1.85 MBq, 6 h, ex vivo biodistribution",baseline: tumour over muscle,tumour-to-muscle ratio,15.2
O=C(O)C(F)(OC(F)(F)C(F)(F)C(F)(F)F)C(F)(F)F (stereo not drawn),19F NMR titration,MeOH/water,27 °C,,pKa,-0.2 ± 0.09
CC(C)C[C@H](NC(=O)[C@H](Cc1ccc(O)cc1)NC(=O)[C@H](C)NC(=O)[C@H](CC(N)=O)NC(=O)[C@H](CC(C)C)NC(=O)[C@H](C)NC(=O)[C@@H](NC(=O)[C@H](CCCCN)NC(=O)CNC(=O)[C@@H](NC(=O)[C@H](CC(N)=O)NC(=O)[C@H](CCCCN)NC(=O)CNC(=O)[C@@H](NC(=O)[C@H](Cc1c[nH]cn1)NC(=O)[C@H](C)NC(=O)[C@H](C)NC(=O)[C@H](CCCCN)NC(=O)[C@H](CCCCN)NC(=O)[C@H](Cc1ccccc1)NC(=O)[C@H](Cc1c[nH]c2ccccc12)NC(=O)[C@H](CCCCN)NC(=O)[C@H](CCCCN)NC(=O)[C@H](CS)NC(=O)CN)C(C)C)C(C)C)C(C)C)C(N)=O,,"zebrafish embryos 4 hpf, E3 medium",24 h,,chronic toxic concentration,5 µM
CCCCCCCCCCCC(=O)C(C)C(=O)N1CCC[C@H]1C(=O)NC(C)(C)C(=O)NC(C)(C)C(=O)NC(C)(C)C(=O)N[C@](C)(CC)C(=O)NCCC(=O)N[C@@H](C)C(=O)N[C@](C)(CC)C(=O)N[C@@H](C)C(=O)N[C@@H](CC(C)C)C(=O)N[C@](C)(CC)C(=O)NCCC(=O)N[C@@H](C)C(=O)N[C@](C)(CC)C(=O)NCCC(=O)N[C@@H](C)C(=O)NC(C)(C)C(=O)NC(C)(C)C(=O)NC(C)(C)C(=O)N[C@@H](C)C(=O)N[C@@H](CC(=O)O)C(=O)O (stereo partly drawn),LC-MS,buffer with human neutrophil elastase,"40 µM, 120 min, pH 7.5, 37 °C",baseline: 0 h,remaining intact peptide,66.3% and 64.7%
CCCC[C@H]1C(=O)N(C)[C@@H](CCCC)C(=O)N[C@@H](CCCCNC(=S)Nc2ccc(CN3CCN(CC(=O)O)CCN(CC(=O)O)CC3)cc2)C(=O)N[C@H](C(=O)NCC(N)=O)CSCC(=O)N[C@@H](Cc2ccc(O)cc2)C(=O)N(C)[C@@H](C)C(=O)N[C@@H](CC(N)=O)C(=O)N2CCC[C@H]2C(=O)N[C@@H](Cc2cnc[nH]2)C(=O)N[C@@H](CCC(=O)O)C(=O)N2C[C@H](O)C[C@H]2C(=O)N[C@@H](Cc2c[nH]c3ccccc23)C(=O)N[C@@H](CO)C(=O)N[C@@H](Cc2cn(CC(=O)O)c3ccccc23)C(=O)N1C [fluorine-18 labelled],"region of interest, PET/CT","HT-29 MSS xenograft, NSG mouse, female, tumour","intravenous, 60 min",,tumour uptake,2.27 ± 0.74 %ID/mL
O=C1NC2(CC2)COc2ncc(F)cc2[C@H]2COCCN2c2ccn3ncc1c3n2,,"Sprague-Dawley rat, female, thymus","oral, 2.5 mg/kg/day, 4 weeks dosing, end of recovery",,organ-to-brain weight ratio,20.4 ± 3.18%
CC(C)C[C@@H](NC(=O)[C@@H](CCCNC(=N)N)NC(=O)[C@@H](Cc1c[nH]cn1)NC(=O)[C@@H](Cc1c[nH]c2ccccc12)NC(=O)[C@@H](Cc1c[nH]cn1)NC(=O)[C@@H](Cc1ccccc1)NC(=O)[C@H](NC(=O)[C@@H](Cc1ccc(O)cc1)NC(=O)CNC(=O)CNC(=O)CCOCCOCCOCCNC(=O)CN1CCN(CC(=O)O)CCN(CC(=O)O)CC1)[C@H](C)O)C(=O)N[C@H](CC(N)=O)C(=O)N1CCC[C@@H]1C(=O)O [gallium-68 labelled],,male C57BL/6 mice,"intravenous, 1.85 MBq, 60 min, added: GP12 blocking",baseline: tumour over lung,tumour-to-tissue ratio,0.62 ± 0.23
CN1Cc2cc(Cl)ccc2-n2c(nnc2C2CCN(c3cccc([18F])n3)CC2)C1,PET two-tissue compartment model,"rhesus monkey, hippocampus","intravenous, dose not given, 60 min scan, baseline scan",,total volume of distribution,0.98 ± 0.29 mL/cm3
CC(=O)c1c(C)c2cnc(Nc3ccc(N4CCNCC4)cn3)nc2n(C2CCCC2)c1=O,,"C57BL/6 mice, blood","25 mg/kg, P25, dosed P10 to P24",,red blood cell count,7.5 ± 0.2 10¹²/liter
COc1ccc(CNc2ccc3c(c2)S(=O)(=O)C=C3)cc1,flow cytometry,"male C57BL/6 mice, spleen","i.p., 10 mg/kg, 8 days",baseline: CD45+ cells,CD8+ cells,10.7%
CC(C)=CCC/C(C)=C/CCn1cc(CC(P(=O)(O)O)P(=O)(O)O)nn1,,mouse CD-1,"intravenous, 0.3 mg/kg, 2 h",baseline: dose,biliary excretion,0.07%
CC[C@H](C)[C@H](NC(=O)[C@H](CCCCN)NC(=O)CNC(=O)[C@H](CC(C)C)NC(=O)[C@H](Cc1ccccc1)NC(=O)[C@H](CCCCN)NC(=O)[C@H](CO)NC(=O)[C@H](Cc1ccccc1)NC(=O)[C@H](Cc1c[nH]c2ccccc12)NC(=O)[C@H](CCC(N)=O)NC(=O)[C@@H](NC(=O)[C@H](Cc1ccccc1)NC(=O)CCCCCNC(=O)CN1CCN(CC(=O)O)CCN(CC(=O)O)CCN(CC(=O)O)CC1)C(C)C)C(=O)N[C@@H](CCC(=O)O)C(=O)N1CCC[C@H]1C(=O)N[C@@H](CC(=O)O)C(=O)N[C@H](C(=O)N[C@@H](CO)C(=O)N[C@@H](CCC(N)=O)C(=O)N[C@H](C(=O)N[C@@H](CCC(N)=O)C(=O)N[C@@H](CC(=O)O)C(=O)N1CCC[C@H]1C(=O)N[C@@H](CC(N)=O)C(=O)N[C@@H](CC(=O)O)C(=O)N[C@@H](CCC(N)=O)C(=O)N[C@@H](Cc1ccc(O)cc1)C(=O)N[C@@H](CCC(=O)O)C(=O)N1CCC[C@H]1C(=O)N[C@@H](Cc1ccccc1)C(=O)O)C(C)C)C(C)C [copper-64 labelled],dynamic PET,"mouse both sexes, CT26 tumour, checkpoint inhibitor-treated, tumour","intravenous, 100 µCi/mouse, 30 s",,SUVmean,0.67 SUV
